Published values of several laboratories.
Each line is one published result; not all experiments were run side by side.

Compound	assay	system	setting	how to read	quantity	result
Cn1c(=O)oc2ccc(-c3ccc(C[C@@H](C#N)NC(=O)[C@@H]4CNCCCO4)cc3)cc21		human, normal renal function, plasma	oral, 25 mg single dose, mean		Vd/F	411 L
CCCCCCOC(=O)NC(=N)c1ccc(NCc2nc3cc(C(=O)N(CCC(=O)OCC)c4ccccn4)ccc3n2C)cc1	item: Headache	human	oral, 75 mg, alone		participants with adverse event	0%
CCc1cc(C(=O)NC)c2nccc(N3CCc4c(cc(Cn5ccnc5)cc4-c4cn(C)nc4C(F)(F)F)C3=O)c2c1		Sprague Dawley rats	oral, 100 mg/kg twice daily, 7 days	reference: vehicle	serum GGT change	-25%
COc1cc(C(=O)N2CCC3(CC2)CC(=O)c2c(cnn2C(C)C)C3)cc(-c2ccc(C(=O)O)cc2)n1	item: direct LDL cholesterol	human, fasting serum	100 mg every 12 h, day 13, adjusted geometric mean	reference: baseline and placebo	placebo-adjusted change from baseline	-7.2%
COc1ccc(NC(=O)c2ccco2)cc1NC(=O)c1cccnc1		octanol/buffer	pH 11, known kinase inactives set		logP	1.53
CCCCCCCCCOC(=O)CCCCCCCN(CCO)CCCCCCCC(=O)OC(CCCCCCCC)CCCCCCCC			pH 5.5, formulated		zeta potential	2.83 mV
COc1cc(Nc2ncc3c(n2)-c2ccc(Cl)cc2C(c2c(F)cccc2OC)=NC3)ccc1C(=O)O	item: Hypotension, grade 3	cancer patients, phase 1/2	oral, dose not given, together with: pembrolizumab		patients with adverse event	4%
CCO[C@H]1CCN(Cc2c(OC)cc(C)c3[nH]ccc23)[C@H](c2ccc(C(=O)O)cc2)C1		human mild hepatic impairment, plasma	oral, 200 mg single dose, mean		unbound AUClast	5970 ng·h/mL
N#Cc1ccc2c(c1)[C@H]1CCCN(C(=O)c3ccc4[nH]cnc4c3)[C@H]1C2		human, male	80 mg, day 7		DHEA-S level	5.4 µmol/L
CC(C)COC(=O)c1ccc2c(c1)/C(=N/Nc1ccc(S(N)(=O)=O)cc1)C(=O)N2		octanol/buffer, 40 mM buffer	pH 11		logP	1.19
CNCc1ccc(-c2[nH]c3cc(F)cc4c3c2CCNC4=O)cc1		patients	oral, 600 mg twice daily, grade 4		decreased appetite incidence	0%
CC(C)(C(=O)N1CCOc2c(C#N)cncc2C1)C(F)F	item: upper abdominal pain	human	oral, 15 mg twice daily, 14 days, multiple ascending dose		subjects with adverse event	0%
CCNCCc1ccc(CN(CC)c2cc(OC)ccc2[C@@H]2CCc3cc(O)ccc3C2)cc1		mouse, non-tumour-bearing, brain	oral, dose not given, 7 days daily, together with: fulvestrant s.c.		total brain concentration	243 nmol/L
Cn1c(=O)[nH]c(=O)c2[nH]cnc21		human, cerebrospinal fluid	dose not given, mean		CSF concentration	not detected
CN1CCc2ccc(/C=C/c3ccc4cc(C(=N)N)ccc4c3)cc2C1C1CCCCC1 (stereo not drawn)		octanol/buffer	pH 11, urokinase ligand set		logP	> 4.5
N#C[C@@]1(c2ccc3c(N)ncnn23)O[C@H](CO)[C@@H](O)[C@H]1O		male beagle dogs, plasma	oral solution, 5 mg/kg		lag time	0 h
C[C@H]1Oc2cc(cnc2N)-c2c(nn(C)c2C#N)CN(C)C(=O)c2ccc(F)cc21		human patients, plasma	oral, dose not given, cycle 2 day 1, geometric mean, together with: avelumab		dose-normalised AUClast	49 ng·h/mL/mg
O=C(c1cccnc1-c1ccncc1)N1CCC(O)(Cc2ccccc2)CC1		healthy Japanese adults, plasma	oral, 1200 mg single dose		AUC(0-inf)/dose	9.55 ng·h/mL/mg
NC1(C(=O)N[C@@H](CCO)c2ccc(Cl)cc2)CCN(c2nc[nH]c3nccc2-3)CC1		metastatic CRPC patients	400 mg b.i.d., grade 3 to 4, treatment-related, together with: enzalutamide 160 mg daily		incidence of white blood cell decreased	0%
C=CC(=O)Nc1cc(Nc2nccc(Nc3cc(Cl)c(F)cc3C(C)(C)O)n2)c(OC)cc1N1CC[C@@H](N(C)C)C1		human patients, plasma	oral, 50 mg daily, cycle 2 day 1, geometric mean		Css,max	68.4 ng/mL
Cc1cc(-c2nccc3c2ccn3CC(=O)Nc2ccc(-c3cnccn3)cn2)ccn1		human	MAD part, 5 mg once daily		subjects with eye disorders TEAEs	12.5%

Excerpt of the above:
Compound	assay	system	setting	how to read	quantity	result
Cc1cc(-c2nccc3c2ccn3CC(=O)Nc2ccc(-c3cnccn3)cn2)ccn1		human	MAD part, 5 mg once daily		subjects with eye disorders TEAEs	12.5%
CCCCCCOC(=O)NC(=N)c1ccc(NCc2nc3cc(C(=O)N(CCC(=O)OCC)c4ccccn4)ccc3n2C)cc1	item: Headache	human	oral, 75 mg, alone		participants with adverse event	0%
